Experimental data from different studies.
A part holds a random share of what one study measured.

Block 1 — technique: RNA Bind-n-Seq; molecule type: RNA; matrix: in vitro; concentration: 1 µM; setting: whole 134-nt RNA, ends assumed; together with: 150 mM KCl; reference: input library; reading: higher = stronger binding; measurement: log2 enrichment
Target: Ras GTPase-activating protein-binding protein 1, C-terminal RGG region (G3BP1, Homo sapiens, UniProt Q13283)
Sequence of UniProt Q13283 (whole entry, looked up): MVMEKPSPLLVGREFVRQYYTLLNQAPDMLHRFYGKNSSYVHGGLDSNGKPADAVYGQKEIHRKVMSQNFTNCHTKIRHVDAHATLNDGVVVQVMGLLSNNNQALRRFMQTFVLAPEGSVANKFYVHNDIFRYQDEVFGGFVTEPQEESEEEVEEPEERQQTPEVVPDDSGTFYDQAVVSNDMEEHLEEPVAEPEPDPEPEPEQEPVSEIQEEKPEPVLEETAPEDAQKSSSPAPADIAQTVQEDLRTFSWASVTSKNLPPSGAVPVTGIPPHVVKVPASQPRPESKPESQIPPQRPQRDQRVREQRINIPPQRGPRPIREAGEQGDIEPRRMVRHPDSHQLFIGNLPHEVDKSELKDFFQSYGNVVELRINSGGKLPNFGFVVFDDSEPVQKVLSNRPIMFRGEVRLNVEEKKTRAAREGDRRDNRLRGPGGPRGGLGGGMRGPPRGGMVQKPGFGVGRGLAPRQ
GGGAGUUCUACAGUCCGACGAUCGCAGGAAGUAAAAACAAAUGGAAAUGCUUCGGAUAGUGGCAGGGGUGGGGGUUGCUAAGGAAAGGGUGGGAUGGGAGUGGGUAAUGAGUUUGGAAUUCUCGGGUGUCAAGG: 1.02
GGGAGUUCUACAGUCCGACGAUCAGUCCUGUGCUACACAUCGUAUGUACCGAAUCGGGUUUUGGUUUUGGGGUUUUGGGGAAAGUAUUAUGUUACGCCGUUCGGAUCUGCACUUGGAAUUCUCGGGUGUCAAGG: -0.436
GGGAGUUCUACAGUCCGACGAUCCAAGUCCUGUGCUACACAUCGUAUGUACCGAAUCGGGAAAAAGGGUUUGGGAGGGAAAGUAUUAUGUUACGCCGUUCGGAUCUGCACUUCUGGAAUUCUCGGGUGUCAAGG: 1.96
GGGAGUUCUACAGUCCGACGAUCAGUCCUGUGCUACACAUCGUAUGUACCGAAUCGGGAAAAAGGGUUUGGGAAAAAGGGAAAGUAUUAUGUUACGCCGUUCGGAUCUGCACUUGGAAUUCUCGGGUGUCAAGG: 0.234

Block 2 — technique: protein-binding microarray; molecule type: double-stranded DNA, one strand shown; matrix: in vitro; concentration: 0.8 µM; setting: whole 60-bp probe, no competitor; reading: higher = stronger binding; measurement: fluorescence intensity; constant ends, left off below: … GTCTTGATTCGCTTGACGCTGCTG
Target: Centromere-binding protein 1, full length, N-terminal tag (CBF1, Saccharomyces cerevisiae, UniProt P17106, residues 1-351)
Sequence of UniProt P17106 (whole entry, looked up): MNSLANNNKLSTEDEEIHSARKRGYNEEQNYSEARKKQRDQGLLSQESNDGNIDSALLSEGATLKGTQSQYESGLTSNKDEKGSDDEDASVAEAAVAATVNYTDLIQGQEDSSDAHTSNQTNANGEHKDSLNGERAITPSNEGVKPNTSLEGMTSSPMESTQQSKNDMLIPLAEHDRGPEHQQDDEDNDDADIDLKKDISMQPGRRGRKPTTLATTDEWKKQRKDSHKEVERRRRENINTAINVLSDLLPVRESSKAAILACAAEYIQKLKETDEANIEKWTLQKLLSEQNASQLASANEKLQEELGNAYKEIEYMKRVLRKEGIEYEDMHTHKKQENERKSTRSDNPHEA
CTAGATCGTCAGTTTCACGTTCGCGGTTCGAACTTC: 531 a.u.
GAATAAAAGTTCAAACACGTTTTTAAGTATTGTTAG: 605 a.u.
CTAATATAGGGAATGCATGTGCACAATTGGTTTTTC: 614 a.u.
TGTACGAAGCTATTGCACACGTATATAGTAGTTAGG: 520 a.u.
CTACAGCTTTGCCAACACGCGCCGTCGGAAGGTTTC: 517 a.u.
GAATCGCCACAGAAGCGCGTGGACGCATGATCGTAG: 963 a.u.
CTATGGAACGATAGGAACGTGTACCCTACCGCTTTC: 522 a.u.

Block 3 — technique: RNAcompete; molecule type: RNA; matrix: in vitro; concentration: 20 nM; setting: 7-mer, probes averaged, single round; reference: mean of 7-mers; reading: higher = stronger binding; measurement: 7-mer Z-score
Target: PABPC1L2, full length, GST fusion (mouse, UniProt A0ABA7IW68)
Residues (chain): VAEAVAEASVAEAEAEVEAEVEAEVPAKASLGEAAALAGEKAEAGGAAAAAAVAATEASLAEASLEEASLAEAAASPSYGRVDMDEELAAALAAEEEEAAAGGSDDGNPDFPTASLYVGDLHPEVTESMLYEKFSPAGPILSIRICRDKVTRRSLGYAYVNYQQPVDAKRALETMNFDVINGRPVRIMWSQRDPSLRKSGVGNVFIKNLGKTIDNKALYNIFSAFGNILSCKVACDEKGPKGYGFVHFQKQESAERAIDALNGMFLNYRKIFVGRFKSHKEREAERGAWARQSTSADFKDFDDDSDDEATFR
GGUGGAC: 0.347
UCGGUUC: -0.333
CAGCUCC: -0.233
CCAACAG: -0.112
AGUUAUG: 0.0497

Further values, each from its own experiment
PhoQ, residues 284 288 289 292 302 303 SSTMSV
fold induction (PhoP, residues 12 14 15 18 19 LHTVL (Escherichia coli, UniProt P23836); Sort-seq, refers to: YFP reporter; E. coli; PhoQ-PhoP variant library, together with: 10 µM Mg2+; reference: high Mg2+ state, higher = stronger signaling): 26.8
